Measured values collected from several papers.
Each line is one published result; not all experiments were run side by side. Numbers after ± are the reported error.
UCHL1: Ubiquitin carboxyl-terminal hydrolase isozyme L1 (UCHL1, Homo sapiens, UniProt P09936)
Chain of UniProt P09936 (whole entry, looked up): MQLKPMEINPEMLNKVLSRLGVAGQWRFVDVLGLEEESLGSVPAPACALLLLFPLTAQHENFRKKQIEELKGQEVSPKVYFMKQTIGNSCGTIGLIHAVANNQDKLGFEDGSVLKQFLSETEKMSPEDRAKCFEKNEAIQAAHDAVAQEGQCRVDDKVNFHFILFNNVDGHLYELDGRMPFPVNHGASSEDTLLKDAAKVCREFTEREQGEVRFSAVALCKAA

SMILES | target or system | assay | test system | setting | quantity | result
C[C@H]1O[C@@H](O[C@H]2[C@@H](O)C[C@H](O[C@H]3[C@@H](O)C[C@H](O[C@H]4CC[C@@]5(C)[C@H](CC[C@@H]6[C@@H]5C[C@@H](O)[C@]5(C)[C@@H](C7=CC(=O)OC7)CC[C@]65O)C4)O[C@@H]3C)O[C@@H]2C)C[C@H](O)[C@@H]1O | – | – | EpiIntestinal microtissues | 5 µM, 2 h, no inhibitor | Papp B to A | 14.1 ± 1.6 ×10⁻⁶ cm/s
CCOc1cc(-c2c(C)[nH]c3cc(OC)c(Cl)cc3c2=O)ccc1F | – | – | PAMPA | pH 7.4 | Papp | 145 ×10⁻⁶ cm/s
COc1ccc(C=C(C#N)C(=O)Nc2ccccc2OC)cc1O | UCHL1 | covalent, intact protein LC-MS | – | 12.5 µM | labelling | 10.4%
CCc1c(C)[nH]c2cc(OC)c(Cl)cc2c1=O | – | – | PAMPA | pH 7.4 | Papp | 57 ×10⁻⁶ cm/s
CNS(=O)(=O)Cc1ccc2[nH]cc(CCN(C)C)c2c1 | – | – | EpiIntestinal microtissues | 5 µM, 2 h, pH 6.5, basolateral pH 7.4 | Papp apical to basolateral | 1.87 ×10⁻⁶ cm/s
C[C@@H]1O[C@@H](O[C@H]2[C@H](Oc3cc(O)c4c(c3)O[C@H](c3ccc(O)cc3)CC4=O)O[C@H](CO)[C@@H](O)[C@@H]2O)[C@H](O)[C@H](O)[C@H]1O | – | – | artificial membrane diffusion cell | 50 mg/mL, 480 min, pH 6.8 | Papp | 1.4 ± 1.5 ×10⁻⁶ cm/s
COc1cc(CC2NC(=O)CN(Cc3ccccc3)C2=O)c(I)c(OC)c1 (centres unmarked) | – | – | bEnd.3 Transwell BBB model | 10 µg/mL, 120 min, 37 °C | Papp A to B | 161 ± 9.17 ×10⁻⁶ cm/s
COc1cc2[nH]c(C)c(-c3ccccc3OC(F)(F)F)c(=O)c2cc1Cl | – | – | PAMPA | pH 7.4 | Papp | 411 ×10⁻⁶ cm/s
COC(=O)[C@H]1[C@H]2C[C@@H]3c4[nH]c5cc(OC)ccc5c4CCN3C[C@H]2C[C@@H](OC(=O)c2cc(OC)c(OC)c(OC)c2)[C@@H]1OC | – | – | EpiIntestinal microtissues | 5 µM, 2 h, pH 6.5, basolateral pH 7.4 | Papp apical to basolateral | 2.6 ×10⁻⁶ cm/s
COc1cc2[nH]c(C)c(-c3cc(C(F)(F)F)cc(C(F)(F)F)c3)c(=O)c2cc1Cl | – | – | PAMPA | pH 7.4 | Papp | < 5 ×10⁻⁶ cm/s
COc1cccc(-c2cccc(Nc3nccc(NC4CCCCC4)n3)c2)c1 | – | – | MDCKII-WT cells | 10 µM, pH 7.4 | Papp (A to B) | 0.019 ± 0.016 ×10⁻⁶ cm/s
COC(=O)C(Cc1cccc(OC)c1I)NC(=O)CNCc1ccccc1 (centres unmarked) | – | – | bEnd.3 Transwell BBB model | 10 µg/mL, 120 min, 37 °C | Papp A to B | 146 ± 4.17 ×10⁻⁶ cm/s
CCOC(=O)[C@H](CCc1ccccc1)N[C@@H](C)C(=O)N1CCC[C@H]1C(=O)O | – | – | EpiIntestinal microtissues | 5 µM, 2 h, pH 6.5, basolateral pH 7.4 | Papp apical to basolateral | 0.86 ×10⁻⁶ cm/s
COc1cc2[nH]c(C)c(-c3ccc(N(C)C)cc3)c(=O)c2cc1Cl | – | – | PAMPA | pH 7.4 | Papp | 238 ×10⁻⁶ cm/s
CC(C)c1nc(N(C)S(C)(=O)=O)nc(-c2ccc(F)cc2)c1/C=C/[C@@H](O)C[C@@H](O)CC(=O)O | – | – | EpiIntestinal microtissues | 5 µM, 2 h, no inhibitor | Papp B to A | 21.2 ± 1.7 ×10⁻⁶ cm/s
c1ccc(-c2cccc(Nc3nccc(NC4CCCCC4)n3)c2)nc1 | – | – | MDCKII-WT cells | 10 µM, pH 7.4 | Papp (B to A) | 15.1 ± 12.1 ×10⁻⁶ cm/s
COc1cc2[nH]c(C)c(-c3ccc4nonc4c3)c(=O)c2cc1Cl | – | – | PAMPA | pH 7.4 | Papp | 256 ×10⁻⁶ cm/s
COC(=O)c1cccc(-c2cccc(Nc3nccc(NC4CCCCC4)n3)c2)c1 | – | – | MDCKII-WT cells | 10 µM, pH 7.4 | Papp (B to A) | 0.144 ± 0.075 ×10⁻⁶ cm/s
CCN1CCCC1CNC(=O)c1cc(S(N)(=O)=O)ccc1OC (centres unmarked) | – | – | EpiIntestinal microtissues | 5 µM, 2 h, pH 6.5, basolateral pH 7.4 | Papp apical to basolateral | 0.59 ×10⁻⁶ cm/s
CC(C)Nc1ccnc(Nc2cccc(C(C)(C)C)c2)n1 | – | – | MDCKII-WT cells | 10 µM, pH 7.4 | Papp (B to A) | 2.09 ± 1.22 ×10⁻⁶ cm/s
N#CC(=Cc1cc(F)ccc1F)C(=O)Nc1ccc(F)cc1 | UCHL1 | covalent, intact protein LC-MS | – | 12.5 µM | labelling | 23.4%
CC(C)Nc1ccnc(Nc2cccc(-c3ccccc3)c2)n1 | – | – | MDCKII-WT cells | 10 µM, pH 7.4 | Papp (A to B) | 0.638 ± 0.125 ×10⁻⁶ cm/s
COc1cc2[nH]c(C)c(-c3ccc(F)cc3F)c(=O)c2cc1Cl | – | – | PAMPA | pH 7.4 | Papp | 315 ×10⁻⁶ cm/s
CC(C)Nc1ccnc(Nc2cccc(-c3ccncc3)c2)n1 | – | – | MDCKII-WT cells | 10 µM, pH 7.4 | Papp (B to A) | 40.7 ± 20.1 ×10⁻⁶ cm/s
CCCCCCOC(=O)NC(=N)c1ccc(NCc2nc3cc(C(=O)N(CCC(=O)OCC)c4ccccn4)ccc3n2C)cc1 | – | – | human EpiIntestinal microtissues | 5 µM, 2 h | Papp (A to B) | 0.038 ×10⁻⁶ cm/s
CC(C)Nc1ccnc(Nc2ccccc2-c2ccccc2)n1 | – | – | MDCKII-WT cells | 10 µM, pH 7.4 | Papp (B to A) | 12.1 ± 2.96 ×10⁻⁶ cm/s
COc1cc2[nH]c(C)c(-c3ccc(F)cc3)c(=O)c2cc1Cl | – | – | PAMPA | pH 7.4 | Papp | 65 ×10⁻⁶ cm/s
COc1cccc(-c2cccc(Nc3nccc(NC(C)C)n3)c2)c1 | – | – | MDCKII-WT cells | 10 µM, pH 7.4 | Papp (B to A) | 0.543 ± 0.056 ×10⁻⁶ cm/s
Nc1nc2c(ncn2COCCO)c(=O)[nH]1 | – | – | EpiIntestinal microtissues | 5 µM, 2 h, pH 6.5, basolateral pH 7.4 | Papp apical to basolateral | 1.3 ×10⁻⁶ cm/s
